Assay results of several laboratories.
A part holds a random share of what one study measured. Substitutions count along the parent as printed.

Sample 1
Target: UDP-N-acetylglucosamine--peptide N-acetylglucosaminyltransferase 110 kDa subunit (OGT, Homo sapiens, UniProt O15294)
Sequence of UniProt O15294 (whole entry, looked up): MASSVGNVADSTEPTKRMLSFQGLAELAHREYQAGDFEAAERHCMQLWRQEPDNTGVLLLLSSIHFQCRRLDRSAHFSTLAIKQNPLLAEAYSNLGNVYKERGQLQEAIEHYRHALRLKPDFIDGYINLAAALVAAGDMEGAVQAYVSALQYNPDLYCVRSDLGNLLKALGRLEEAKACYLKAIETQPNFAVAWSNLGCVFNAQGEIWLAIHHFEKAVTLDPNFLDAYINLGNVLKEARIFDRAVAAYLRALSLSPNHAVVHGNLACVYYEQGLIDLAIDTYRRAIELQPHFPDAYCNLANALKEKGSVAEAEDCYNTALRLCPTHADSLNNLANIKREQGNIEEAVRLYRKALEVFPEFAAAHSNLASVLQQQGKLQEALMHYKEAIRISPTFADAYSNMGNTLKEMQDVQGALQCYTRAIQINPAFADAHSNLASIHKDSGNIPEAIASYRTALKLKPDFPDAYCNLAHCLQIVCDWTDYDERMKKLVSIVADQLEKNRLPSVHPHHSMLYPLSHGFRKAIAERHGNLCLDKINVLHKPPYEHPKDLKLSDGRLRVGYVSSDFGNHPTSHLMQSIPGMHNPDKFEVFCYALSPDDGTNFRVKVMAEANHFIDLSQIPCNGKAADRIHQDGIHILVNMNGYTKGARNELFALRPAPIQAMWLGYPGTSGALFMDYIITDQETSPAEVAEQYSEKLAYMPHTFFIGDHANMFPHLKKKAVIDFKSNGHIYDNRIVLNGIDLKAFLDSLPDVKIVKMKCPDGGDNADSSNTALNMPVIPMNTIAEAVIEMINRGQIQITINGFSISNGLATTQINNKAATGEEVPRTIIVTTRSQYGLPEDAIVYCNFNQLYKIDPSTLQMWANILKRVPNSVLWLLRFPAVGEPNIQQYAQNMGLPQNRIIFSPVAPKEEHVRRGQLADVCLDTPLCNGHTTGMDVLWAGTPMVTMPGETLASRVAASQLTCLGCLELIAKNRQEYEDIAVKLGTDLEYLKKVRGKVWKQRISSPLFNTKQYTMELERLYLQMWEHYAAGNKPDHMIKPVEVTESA
Observed: binding
Technique: phage display NGS
Form: peptide
Baseline: input library
Under “minimum log2 enrichment ratio”, `QVMNEHRHHMRHQIY` is recorded as 1.51.
`NFFPQYQIEVSLPKH` — result for “minimum log2 enrichment ratio”: 5.23.
`SRTLTPMYQIHPFTS` — result for “minimum log2 enrichment ratio”: 1.17.
`WIFPSQHARHYNTLG`: “minimum log2 enrichment ratio” 1.78.
`SINWFLPQYQIIWSQ` — result for “minimum log2 enrichment ratio”: 4.74.
`GIVNKYLPKYQIETI`: “minimum log2 enrichment ratio” 5.28.
`HNHRHHITSAAIAQA` — result for “minimum log2 enrichment ratio”: 2.02.
Under “minimum log2 enrichment ratio”, `HGHRWAHPVGPHGPM` is recorded as 2.11.

Sample 2
Target: CCND2, cyclin fold, Cln2 fusion (human)
Technique: yeast growth competition, sequencing
Medium: yeast
Setting: weak parent motif
Baseline: not given
Direction: higher = stronger binding
Parent: viral docking peptide; CKVKRKLFGSENI
Under “normalised enrichment score”, `R5K F8L` is recorded as -0.178.
`F8A` — result for “normalised enrichment score”: -0.089.
Under “normalised enrichment score”, `R5A L7A` is recorded as 0.295.
`I13A` — result for “normalised enrichment score”: 0.324.
Under “normalised enrichment score”, `K6A` is recorded as 0.316.

Sample 3
Target: tungstate, free oxyanion
Technique: microfluidic competitive inhibition
Medium: in vitro, cell-free expressed
Concentration: not given
Setting: derived from inhibition constants, unchanged parent 2230 nM
Direction: lower = stronger binding
Parent: PafA, mature enzyme, eGFP fusion (Elizabethkingia meningoseptica, UniProt Q9KJX5); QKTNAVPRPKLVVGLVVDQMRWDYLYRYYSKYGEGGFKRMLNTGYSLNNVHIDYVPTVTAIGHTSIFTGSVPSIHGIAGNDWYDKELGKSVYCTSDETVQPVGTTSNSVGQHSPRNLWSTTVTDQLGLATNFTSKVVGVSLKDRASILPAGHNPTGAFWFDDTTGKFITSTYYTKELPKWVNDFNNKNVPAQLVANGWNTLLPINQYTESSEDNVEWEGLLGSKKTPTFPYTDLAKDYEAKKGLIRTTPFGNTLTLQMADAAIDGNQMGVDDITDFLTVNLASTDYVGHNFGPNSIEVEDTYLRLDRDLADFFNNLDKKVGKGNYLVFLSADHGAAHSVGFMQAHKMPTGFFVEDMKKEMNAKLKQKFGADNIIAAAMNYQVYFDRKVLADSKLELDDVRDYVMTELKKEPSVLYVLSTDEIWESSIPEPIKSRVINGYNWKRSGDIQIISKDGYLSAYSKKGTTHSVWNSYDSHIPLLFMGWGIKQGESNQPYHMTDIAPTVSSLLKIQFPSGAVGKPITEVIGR
Under “oxyanion analog dissociation constant”, `L389V` is recorded as 1.9 µM.
Under “oxyanion analog dissociation constant”, `D84V` is recorded as 2.42 µM.
For `G79A`, “oxyanion analog dissociation constant” read 2.3 µM.
`T43V`: “oxyanion analog dissociation constant” 2.68 µM.
Under “oxyanion analog dissociation constant”, `W483V` is recorded as 2.16 µM.
`T57V`: “oxyanion analog dissociation constant” 1.56 µM.
Under “oxyanion analog dissociation constant”, `K175G` is recorded as 2.18 µM.
For `L417V`, “oxyanion analog dissociation constant” read 2.29 µM.

Mixed results
`Cn1cncc1[C@@](O)(COc1ccc(C#N)cc1-c1ccc(OC(F)(F)F)cc1)c1ccc(C#N)cc1` gave an inhibition of -3.79% (Histamine H4 receptor (HRH4, Homo sapiens, UniProt Q9H3N8); ligand displacement; 10 µM).

For quick reference, copied from above (sample 3):
For `G79A`, “oxyanion analog dissociation constant” read 2.3 µM.
Under “oxyanion analog dissociation constant”, `L389V` is recorded as 1.9 µM.
